Measured values gathered from unrelated publications.
Numbered parts are unrelated; each lists some results of a single study.

Block 1 — method: universal PBM; molecule type: double-stranded DNA, one strand shown; matrix: in vitro; concentration: not given; direction: higher = stronger binding
Target: Sal-like protein 4, full length isoform B (SALL4, Homo sapiens, UniProt Q9UJQ4-2, residues 1-616)
Notes: 8-mer, flanks averaged, mean of replicates
Target sequence (chain): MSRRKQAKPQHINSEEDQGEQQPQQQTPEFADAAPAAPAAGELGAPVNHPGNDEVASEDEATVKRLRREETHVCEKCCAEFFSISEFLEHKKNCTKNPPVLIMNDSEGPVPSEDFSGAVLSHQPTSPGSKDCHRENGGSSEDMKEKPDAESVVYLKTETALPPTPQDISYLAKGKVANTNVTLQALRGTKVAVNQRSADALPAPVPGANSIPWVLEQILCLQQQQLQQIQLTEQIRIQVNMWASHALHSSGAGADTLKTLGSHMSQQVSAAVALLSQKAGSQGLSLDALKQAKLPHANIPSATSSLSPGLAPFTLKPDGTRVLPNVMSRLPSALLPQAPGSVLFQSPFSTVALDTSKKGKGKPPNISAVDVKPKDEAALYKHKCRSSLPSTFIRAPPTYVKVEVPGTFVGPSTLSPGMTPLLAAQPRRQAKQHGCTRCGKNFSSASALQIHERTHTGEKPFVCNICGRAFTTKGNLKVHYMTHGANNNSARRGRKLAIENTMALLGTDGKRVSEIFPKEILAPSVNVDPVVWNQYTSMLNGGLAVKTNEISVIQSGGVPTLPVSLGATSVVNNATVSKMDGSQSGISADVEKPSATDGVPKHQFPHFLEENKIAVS
| Sequence | E-score |
| --- | --- |
| AGCTTCCC | -0.19 |
| CGGGGTAC | -0.348 |
| CTAAATTA | 0.31 |

Block 2 — method: protein-binding microarray; molecule type: double-stranded DNA, one strand shown; matrix: in vitro; concentration: not given; direction: higher = stronger binding
Target: Protein C-ets-1 (ETS1, Homo sapiens, UniProt P14921, residues 1-441, K379A, full length assumed)
Notes: k-mer, scored over probes, only values ≥0.25
Construct (chain): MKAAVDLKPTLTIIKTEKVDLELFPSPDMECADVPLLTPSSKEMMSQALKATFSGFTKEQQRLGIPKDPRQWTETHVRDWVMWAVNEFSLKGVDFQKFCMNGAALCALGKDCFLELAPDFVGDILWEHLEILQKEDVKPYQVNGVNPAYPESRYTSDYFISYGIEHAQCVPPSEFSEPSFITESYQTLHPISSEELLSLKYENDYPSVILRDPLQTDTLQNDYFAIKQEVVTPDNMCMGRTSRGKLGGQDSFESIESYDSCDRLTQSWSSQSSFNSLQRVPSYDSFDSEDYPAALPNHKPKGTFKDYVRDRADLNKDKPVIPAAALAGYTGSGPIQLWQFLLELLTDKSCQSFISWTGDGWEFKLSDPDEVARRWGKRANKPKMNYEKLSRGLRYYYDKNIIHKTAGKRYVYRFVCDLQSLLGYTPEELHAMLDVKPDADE
| Sequence | E-score |
| --- | --- |
| CCGGAACA | 0.4 |
| ACACATGA | 0.291 |
| ACAGTTAA | 0.29 |

Block 3 — method: protein binding microarray; molecule type: double-stranded DNA, one strand shown; matrix: in vitro; concentration: not given; baseline: not given; direction: higher = stronger binding
Target: Histone acetyltransferase KAT6A, winged helix 2, GST fusion (KAT6A, Homo sapiens, UniProt Q92794, residues 85-181)
Notes: 8-mer, flanks averaged, mean of 2 arrays, mostly near background
Residues (chain): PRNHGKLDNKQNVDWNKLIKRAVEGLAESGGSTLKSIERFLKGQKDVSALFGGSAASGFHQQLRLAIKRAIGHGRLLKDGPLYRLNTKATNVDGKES
| Sequence | E-score |
| --- | --- |
| CTCGTGGA | -0.104 |
| GATCTTGA | 0.00721 |
| CCCGAGAG | 0.107 |

Single results of other studies
| Substance | target | test | system | setting | scale | quantity | result |
| --- | --- | --- | --- | --- | --- | --- | --- |
| PhoQ, residues 284 288 289 292 302 303 SSTLSG | PhoP, residues 12 14 15 18 19 NMSFL (Escherichia coli, UniProt P23836) | Sort-seq, measured: YFP reporter | E. coli | PhoQ-PhoP variant library, together with: 10 µM Mg2+ | baseline: high Mg2+ state, higher = stronger signaling | fold induction | 12 |

For quick reference, copied from above (block 2):
| Sequence | E-score |
| --- | --- |
| ACAGTTAA | 0.29 |
